# Measurements from different studies.
# Numbered parts are unrelated; each lists some results of a single study. Positions count from the first letter of the parent shown.

# Study 1
# Target: CCNB3, cyclin fold, Cln2 fusion (human)
# Method: yeast growth competition, sequencing
# Sample: yeast
# Notes: strong parent motif
# Reference: not given
# Reading: higher = stronger binding
# Parent: RBL2 docking peptide (human); STTRRRLFVENDS; partner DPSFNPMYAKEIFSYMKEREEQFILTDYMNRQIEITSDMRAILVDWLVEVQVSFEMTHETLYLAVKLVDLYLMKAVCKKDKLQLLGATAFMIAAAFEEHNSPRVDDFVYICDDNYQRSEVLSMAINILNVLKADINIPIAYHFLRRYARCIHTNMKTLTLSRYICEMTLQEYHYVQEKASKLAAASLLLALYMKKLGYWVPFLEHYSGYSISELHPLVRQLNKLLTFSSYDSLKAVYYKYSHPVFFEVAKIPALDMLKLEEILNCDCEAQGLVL
Substitution,normalised enrichment score
STTLRRLFVENDS [R4L],0.845
STTRRRLFWENDS [V9W],1.03
STTRRRLFVENTS [D12T],0.437
STTRLRLFVENDS [R5L],0.00645
STTRRRLFVENWS [D12W],0.581
QTTRRRLFVENDS [S1Q],0.879
STGRRRLFVENDS [T3G],0.701
STTRRRLFVENDG [S13G],1.22
STTRRRLFVEDDS [N11D],1.46
STTRRQLFVENDS [R6Q],0.433
STWRRRLFVENDS [T3W],0.376
STTRRKLFVENDS [R6K],1.58
STNRRRLFVENDS [T3N],-0.294
STTRRRLFVENLS [D12L],0.277
STTRRRLFVENIS [D12I],0.909
STTRRRLFVENHS [D12H],0.331
STTRGRLFVENDS [R5G],-0.0859
STTRTRLFVENDS [R5T],0.757
STTRRRLIVENDS [F8I],0.195
SKTRRRLFVENDS [T2K],1.81
GTTRRRLFVENDS [S1G],1.13
WTTRRRLFVENDS [S1W],0.626
STLRRRLFVENDS [T3L],0.712
STTRRRLSVENDS [F8S],0.0798
STTRRRLFVENCS [D12C],0.474

# Study 2
# Target: ABI1, truncated, D143A, DHFR fusion (Arabidopsis thaliana)
# Method: DHFR PCA, deep sequencing
# Sample: yeast
# Notes: methotrexate growth selection, single substitutions
# Added: (+)-ABA 1.4 µM
# Reference: wild-type fitted maximum
# Reading: higher = stronger binding
# Parent: PYL1, truncated, DHFR fusion (Arabidopsis thaliana); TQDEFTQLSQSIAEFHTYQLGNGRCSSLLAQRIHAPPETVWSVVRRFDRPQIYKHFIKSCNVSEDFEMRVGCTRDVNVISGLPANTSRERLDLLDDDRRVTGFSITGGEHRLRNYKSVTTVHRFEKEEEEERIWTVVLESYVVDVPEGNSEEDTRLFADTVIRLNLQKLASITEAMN; partner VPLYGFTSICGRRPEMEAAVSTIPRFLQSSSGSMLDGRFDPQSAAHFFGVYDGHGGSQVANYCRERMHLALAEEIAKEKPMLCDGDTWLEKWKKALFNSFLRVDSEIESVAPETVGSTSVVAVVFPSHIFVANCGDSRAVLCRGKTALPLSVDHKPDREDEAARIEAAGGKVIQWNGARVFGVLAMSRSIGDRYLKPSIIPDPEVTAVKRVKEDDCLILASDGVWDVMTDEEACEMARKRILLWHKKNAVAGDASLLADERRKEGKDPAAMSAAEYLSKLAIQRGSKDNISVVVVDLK
Substitution,relative binding score [%]
R155I,25.9
D97Y,30.7
F157Y,32.7
E4M,64.2
S42Y,-4.3
S150Y,-23.7
S150H,4.55
T17F,-14.9
V136I,61.8
D48L,-9.58
T160C,20.5
F124T,9.64
A175C,38.8
D95R,-3.06

# Study 3
# Target: Histone acetyltransferase KAT6A, both winged helices, GST fusion (KAT6A, Homo sapiens, UniProt Q92794, residues 1-181)
# Method: protein binding microarray
# Molecule type: double-stranded DNA, one strand shown
# Sample: in vitro
# Concentration: not given
# Notes: 8-mer, flanks averaged, mean of 2 arrays, mostly near background
# Reference: not given
# Reading: higher = stronger binding
# Residues (chain): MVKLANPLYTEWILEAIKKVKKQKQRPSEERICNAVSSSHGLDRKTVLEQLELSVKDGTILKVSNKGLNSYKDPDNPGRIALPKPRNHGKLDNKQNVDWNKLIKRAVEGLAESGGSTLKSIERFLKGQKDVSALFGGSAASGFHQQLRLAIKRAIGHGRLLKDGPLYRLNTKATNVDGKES
Sequence,E-score
CTAAGATC,0.102
AGCTCGAA,-0.025
TGCACAAA,-0.134
AAACAGGC,0.0181
GGCTGCAA,0.107
CACCGTGG,-0.0462
CGGGGGTA,0.0478
ACCCTTAT,-0.0329
ATGCCTGG,-0.251
ACTTCGGC,0.0309
CGGCGCGC,0.401
AGGGCCTC,-0.189
GCGCAATA,0.235
GGAGGAGA,-0.128
ACCCTCCT,-0.182
CTTCATAA,-0.0342
ATCGTTAC,0.027
AGCACAGG,-0.069
CATGTAAG,-0.004
ACCCGTGG,0.175
CGGCCCAA,0.148
ATGAACAT,-0.0373
ACCTGTTG,-0.164
AAACAGCA,-0.0584
ATACGCGA,0.2

# Study 4
# Target: Ras GTPase-activating protein-binding protein 1, C-terminal RGG region (G3BP1, Homo sapiens, UniProt Q13283)
# Sequence of UniProt Q13283 (whole entry, looked up): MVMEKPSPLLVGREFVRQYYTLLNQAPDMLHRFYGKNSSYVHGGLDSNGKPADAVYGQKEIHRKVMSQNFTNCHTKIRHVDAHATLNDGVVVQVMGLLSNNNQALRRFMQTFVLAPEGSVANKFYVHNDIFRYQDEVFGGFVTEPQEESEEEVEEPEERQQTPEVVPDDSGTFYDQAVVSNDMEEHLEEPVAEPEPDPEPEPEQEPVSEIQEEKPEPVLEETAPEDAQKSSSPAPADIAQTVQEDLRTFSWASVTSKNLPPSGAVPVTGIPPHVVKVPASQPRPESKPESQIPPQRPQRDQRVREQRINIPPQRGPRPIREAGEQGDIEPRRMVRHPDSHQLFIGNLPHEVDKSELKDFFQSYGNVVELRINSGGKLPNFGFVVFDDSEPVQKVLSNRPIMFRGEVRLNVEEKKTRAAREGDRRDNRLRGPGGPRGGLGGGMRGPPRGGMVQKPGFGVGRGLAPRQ
# Method: RNA Bind-n-Seq
# Molecule type: RNA
# Sample: in vitro
# Concentration: 1 µM
# Notes: whole 134-nt RNA, ends assumed
# Added: 150 mM KCl
# Reference: input library
# Reading: higher = stronger binding
# Shared flanks, not repeated: GGGAGUUCUACAGUCCGACGAUC … UGGAAUUCUCGGGUGUCAAGG
Sequence,log2 enrichment
ACCAUGCAGGUGGGCAUCUUUGGGAAGUGGGGCAAGGGUGGGAUAGGGAGGGGGGUAACACUUUGGGAACAGGUGGUCCCAGGUCGUUUC,-0.92
GUCCUGUGCUACACAUCGUAUGUACCGAAUCAAAUUUAAAUUUUUUUAAACCCCCAAAAAAGUAUUAUGUUACGCCGUUCGGAUCUGCAC,-0.757
UGGACCCGGAGCUGAUGCAGAAGUUCAGCUGCCUGGGCACCACCGACAAGGACGUGCUCAUCUCCGAGUUCCAGAGGCUGCUCGGCUUCC,-0.552
CUCAAGUCCUGUGCUACACAUCGUAUGUACCGAAUCGGGAAGGAAGGGAAGGGGAAAGUAUUAUGUUACGCCGUUCGGAUCUGCACUUCC,-0.461
GCAGGAAGUAAAAACAAAUGGAAAUGCUUCGGAUAGUAGCAGGGGUGGGGGUUGCUAAGGAAAGGGUGGGAUGGGAGUGGGUAAAGAGUU,0.837
AGUCCUGUGCUACACAUCGUAUGUACCGAAUCGGGGCCCCGGCCCCGGGCCCCGGGGAAAGUAUUAUGUUACGCCGUUCGGAUCUGCACU,-2.04
CACAGACAACACGCACCCACACAGACACAGAGGGAAGGGGUUGGGAUGGGGACAGGGUGCACAGCAGGGCGGGGUAGGACCCCAGCACCU,-1.07
CUCAAGUCCUGUGCUACACAUCGUAUGUACCGAAUCGGGAGGGAAAGGGAGGGAAAGUAUUAUGUUACGCCGUUCGGAUCUGCACUUCCA,2.05
UGGCCCUGGUGGCAUGCGUGGAGGAAGAGGUGGCCUCAUGGAUCGUGGUGGUCCCGGUGGAAUGUUCAGAGGUGGCCGUGGUGGAGACAG,1.49
AAGUCCUGUGCUACACAUCGUAUGUACCGAAUCGGAAAAAGGAAAGGAAAAAAAGGAAAGUAUUAUGUUACGCCGUUCGGAUCUGCACUU,-1.87
GCAGGAAGUAAAAACAAAUGGAAAUGCUUCGGAUAGUGGCAGGGGUGGGGGUUGCUAAGGAAAGGGUGGGAUGGUAGUGGGUAAAGAGUU,1.09
UAACUUUAGAGGAGGAUCUGAUGGAUAUGGCAGUGGACCUGGAUUUGGGGAUGGCUAUAAUGGGUAUGGAGGAGGACCUGGAGGUGGCAA,-1.32
UCAAGUCCUGUGCUACACAUCGUAUGUACCGAAUCGGUUUUUGGUUUGGUUUGGAAAGUAUUAUGUUACGCCGUUCGGAUCUGCACUUCC,-1.29
CUCAAGUCCUGUGCUACACAUCGUAUGUACCGAAUCGGGGAGGGAGGGGAGGGAAAGUAUUAUGUUACGCCGUUCGGAUCUGCACUUCCA,2.32

# Study 5
# Target: Transcriptional repressor CTCF (CTCF, Homo sapiens, UniProt P49711, residues 1-727, full length assumed)
# Sequence of UniProt P49711 (whole entry, looked up): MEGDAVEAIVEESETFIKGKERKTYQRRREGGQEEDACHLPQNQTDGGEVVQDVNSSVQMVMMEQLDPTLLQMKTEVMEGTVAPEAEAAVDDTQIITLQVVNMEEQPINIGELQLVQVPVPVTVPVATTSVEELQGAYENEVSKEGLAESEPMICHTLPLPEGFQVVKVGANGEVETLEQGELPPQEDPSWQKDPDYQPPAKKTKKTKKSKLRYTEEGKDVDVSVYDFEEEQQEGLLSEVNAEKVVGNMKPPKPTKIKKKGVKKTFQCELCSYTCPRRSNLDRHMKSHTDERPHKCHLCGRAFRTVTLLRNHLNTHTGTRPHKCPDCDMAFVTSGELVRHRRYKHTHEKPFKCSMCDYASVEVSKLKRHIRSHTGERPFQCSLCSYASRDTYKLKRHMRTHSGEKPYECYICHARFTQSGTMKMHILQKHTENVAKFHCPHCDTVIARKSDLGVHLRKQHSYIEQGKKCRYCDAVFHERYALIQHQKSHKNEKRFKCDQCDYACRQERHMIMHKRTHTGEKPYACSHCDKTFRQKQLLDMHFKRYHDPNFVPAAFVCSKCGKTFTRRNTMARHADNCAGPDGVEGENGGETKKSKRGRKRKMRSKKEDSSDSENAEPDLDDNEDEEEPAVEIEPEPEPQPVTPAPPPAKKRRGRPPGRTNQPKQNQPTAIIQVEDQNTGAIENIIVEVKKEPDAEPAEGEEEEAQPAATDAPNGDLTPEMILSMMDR
# Method: protein-binding microarray
# Molecule type: double-stranded DNA, one strand shown
# Sample: in vitro
# Concentration: not given
# Notes: k-mer, scored over probes, only values ≥0.25
# Reading: higher = stronger binding
Sequence,E-score
AATTTTCA,0.282
TGCAAAAA,0.268
ACATACAA,0.338
ATGCGCAC,0.46
CGATATAA,0.265
ATGTGCGC,0.368
TAACAGCA,0.262
AATATTCA,0.272
GCGCATCC,0.34
ACCACACG,0.257
TGGAAAAA,0.264
ACACTAGG,0.286
AATAAAAC,0.365
ACATGTTG,0.26
AAACGTAA,0.3
AGTATACC,0.304
ATAATGTA,0.361
ATAACGTC,0.338
TCTGCGCA,0.356
TACTACAA,0.315
ATAGCGCC,0.393
ATGTGTTA,0.309
AATTAATG,0.262
AATATAAA,0.337
ATTTAACC,0.252

# Study 6
# Target: RING finger protein unkempt homolog, zinc fingers 1-6, GST-SBP tag (UNK, Homo sapiens, UniProt Q9C0B0, residues 30-357)
# Method: RNA Bind-n-Seq
# Molecule type: RNA
# Sample: in vitro
# Concentration: not given
# Notes: RNA with constant flanks, human and mouse sites, ends assumed
# Reference: input RNA pool
# Reading: higher = stronger binding
# Shared flanks, not repeated: GGGAGUUCUACAGUCCGACGAUC … CAACAGAGGAUUGAGCAUCA
# Construct (chain): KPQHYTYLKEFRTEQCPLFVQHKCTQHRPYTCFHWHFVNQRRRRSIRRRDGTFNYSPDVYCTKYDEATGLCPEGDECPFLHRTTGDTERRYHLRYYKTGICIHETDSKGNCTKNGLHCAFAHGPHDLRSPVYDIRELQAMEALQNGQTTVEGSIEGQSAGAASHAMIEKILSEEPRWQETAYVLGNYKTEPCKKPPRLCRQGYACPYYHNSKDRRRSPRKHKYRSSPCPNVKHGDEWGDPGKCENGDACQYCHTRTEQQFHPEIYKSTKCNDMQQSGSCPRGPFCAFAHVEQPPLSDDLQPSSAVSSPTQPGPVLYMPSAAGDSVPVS
Sequence,bound/input enrichment [ratio]
UGAUGAGUAUUUACAUUAUGAAUGUAUAACCCAGACAUGAUUUGUAAAGCCGACAGUAUGUUUCUAUUACACAACACUUUUUGAUACAGCGUCUCUUGUCUUCACUGAUACUGGAGUCUC,0.22
AAAAAUCCAGGAAUCACCUCAGCAGUAAAUAAAAUAAAUAAUAUUGACAAUAUGUACCGAAAUUUCCAAAUGGAAGUGCUAUCUGGAGAGCAGAACAUGAUGACAAAGGUUCGAGAAAAC,0.74
GGUAAGCUCAUCGCAGUGAUCGGAGACGAGGACACGGUGACUGGUUUCCUGCUGGGCGGCAUAGGGGAGCUUAACAAGAACCGCCAUCCCAAUUUCCUGGUGGUGGAGAAGGAUACAACC,0.174
UGCUUCCAAACACUGACAGGGAUCAAGUUUGUGGUCCUGGCAGACCCUAGGCAAGCUGGAAUAGAUUCUCUUCUCCGAAAAAUUUAUGAAAUUUACUCAGACUUUGCCCUCAAGAAUCCA,0.632
UAUGACCUGGUUGCAGGGAGUCAAUGCCUGAAGAGCAGUUACGUCCUCAGCAAAUCCCGAGCCCUGGAGCAUUUUCCCAUGCUCCAGAAGGACAAGCUGGUAGGCGCCAUUGUCUACUAU,0.0924
ACCAGAGAUGAGACCAACUAUGGCAUACCACAGCGUGCUCUGAGAGGUCACUCCCACUUCGUUAGUGAUGUUGUUAUCUCCUCUGAUGGUCAGUUUGCCCUCUCGGGCUCCUGGGACGGA,0.349
GUUACCAAAAUCACUCUAGAAUCUUUUCUUGCCUGGAAGAAAAGGAAAAGACAAGAAAAGAUUGAUAAACUUGAACAAGAUAUGGAAAGAAGGAAAGCUGACUUCAAAGCAGGGAAAGCA,0.375
CUGAGUUUGAGGCCGUCCCCGACUCCUUCCUCCCCCUUCCCUCCCCCUUUUUUUUGUUUUCCGUUCCCCUUUCCCCUCCCUUCCCUAUCCCCGACGACCGGAUCCUGAGGAGGCAGCUGC,1.32
UUUCUCAAAUCCCUAAAUUUCUGAUUUCCAUUCAAGUCUUUUAAACUCUUUCCUGCUGAAUAGCAAAGAACUUUUAUUUUCCACUUUCCUAUAUUCCUAAAAAGUGUGAACAAUGCGUUU,0.385
AGGUUACUUAUGCAUCAUAUCAGAGAUUGUUUACCAGAGCUGAAAACAAGAAUAAAUGUCUUAGCUGCUCAGUAUCAGUCUCUUCUAAAUAGCUAUGGUGAACCGGUGGAUGAUAAAAGU,0.204
GUUUCGUCUUGUAUCCCCAAAAUAUUAGCUGAAGAAAGUUAUCUUUAUAAACAUGAUAUUAUAAUGCCUCCUUUACCUUUUACUUCUAAAGUUCAUGUCCAAACUAUUAAUGCCAAGUAG,4.2

# Other studies, line by line
Substance,target,assay,system,conditions,scale,endpoint,value
"PhoQ, residues 284 288 289 292 302 303 SACGEM","PhoP, residues 12 14 15 18 19 QWHVF (Escherichia coli, UniProt P23836)","Sort-seq, refers to: YFP reporter",E. coli,"PhoQ-PhoP variant library, added: 10 µM Mg2+","reference: high Mg2+ state, higher = stronger signaling",fold induction,13.1

# A few entries again (study 3):
Sequence,E-score
CGGCGCGC,0.401
TGCACAAA,-0.134
GGAGGAGA,-0.128
GCGCAATA,0.235
AGCACAGG,-0.069
ACCCTCCT,-0.182
AGGGCCTC,-0.189
ACTTCGGC,0.0309
ACCCGTGG,0.175
CACCGTGG,-0.0462
AAACAGGC,0.0181
ATGCCTGG,-0.251
CTTCATAA,-0.0342
